Experimental data gathered from unrelated publications.
Every numbered part comes from another study and shows a few of its results, in no order. Changes are numbered by the printed parent chain.

Sample 1
Target: Histone acetyltransferase KAT6A, winged helix 1, GST fusion (KAT6A, Homo sapiens, UniProt Q92794, residues 1-85)
Method: protein binding microarray
Molecule type: double-stranded DNA, one strand shown
Sample: in vitro
Tested at: not given
Setting: 8-mer, flanks averaged, mean of 2 arrays, mostly near background
Baseline: not given
Direction: higher = stronger binding
Residues (chain): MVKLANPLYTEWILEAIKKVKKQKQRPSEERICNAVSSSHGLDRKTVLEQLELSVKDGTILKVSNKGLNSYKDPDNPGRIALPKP
The E-score of `TGCTGACA` is reported as -0.228.
`ACCGCCCA` gave an E-score of 0.215.
`TGTAGCAA` gave an E-score of -0.0865.
`CCCAATCC` gave an E-score of -0.138.
With `ATCGGCGA` the E-score was 0.253.
For `CGTCCTTC`, the E-score was 0.0355.
`ATCCAGTC` has an E-score of -0.0875.
`ACACGTCG` gave an E-score of 0.0564.
`GTTTAGAA` has an E-score of -0.09.
`AACGGAAT` has an E-score of 0.16.
The E-score of `GCGTAGAA` is reported as 0.114.
`CCGTCGAA` has an E-score of 0.162.
With `ATATATTC` the E-score was -0.092.
The E-score of `CACTCGCA` is reported as 0.045.
With `AGGGGCCC` the E-score was -0.0644.
`TGCGCGCA` gave an E-score of 0.438.
`CCGATAGC` gave an E-score of 0.223.
`CCATACAG` has an E-score of -0.15.
`AGTTATAA` gave an E-score of -0.158.
For `AGCACTAT`, the E-score was -0.083.
For `CACGTACA`, the E-score was -0.254.
For `CTACCAAC`, the E-score was -0.125.
For `CACAACCC`, the E-score was -0.0443.
The E-score of `AATGAGCG` is reported as 0.0325.

Sample 2
Target: ABI1, truncated, D143A, DHFR fusion (Arabidopsis thaliana)
Method: DHFR PCA, deep sequencing
Sample: yeast
Setting: methotrexate growth selection, single substitutions
With: (+)-ABA 17 µM
Baseline: wild-type fitted maximum
Direction: higher = stronger binding
Starting sequence: PYL1, truncated, DHFR fusion (Arabidopsis thaliana); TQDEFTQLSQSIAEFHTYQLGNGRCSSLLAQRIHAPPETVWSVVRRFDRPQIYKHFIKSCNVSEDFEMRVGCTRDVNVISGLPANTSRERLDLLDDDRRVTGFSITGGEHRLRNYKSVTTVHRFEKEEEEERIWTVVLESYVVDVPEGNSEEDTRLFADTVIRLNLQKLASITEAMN; partner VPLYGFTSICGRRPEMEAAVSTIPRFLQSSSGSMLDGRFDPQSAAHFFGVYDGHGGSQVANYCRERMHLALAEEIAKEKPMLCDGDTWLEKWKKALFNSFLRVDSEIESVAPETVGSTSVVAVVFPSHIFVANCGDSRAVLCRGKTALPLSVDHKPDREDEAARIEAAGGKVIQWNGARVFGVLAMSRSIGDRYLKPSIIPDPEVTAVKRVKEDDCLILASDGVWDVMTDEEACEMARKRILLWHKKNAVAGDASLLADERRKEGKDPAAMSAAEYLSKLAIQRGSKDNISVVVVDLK
For `P36T`, “relative binding score” read 75.4%.
For `T39A`, “relative binding score” read 79.9%.
`R113C` — result for “relative binding score”: 74.9%.
Under “relative binding score”, `F124P` is recorded as 29.1%.
`V78I` — result for “relative binding score”: 92.4%.
Under “relative binding score”, `E125P` is recorded as 86.7%.
`I105E` — result for “relative binding score”: 0.471%.
`V76M` — result for “relative binding score”: 20.1%.
For `K58H`, “relative binding score” read 70%.
For `S11Q`, “relative binding score” read 90.1%.
For `D96W`, “relative binding score” read -17.2%.
Under “relative binding score”, `P83G` is recorded as 39.3%.
`A158Y`: “relative binding score” 1%.
`V44L`: “relative binding score” 75.3%.
For `H122P`, “relative binding score” read 4.63%.
`Q7I` — result for “relative binding score”: 73.1%.
Under “relative binding score”, `R32E` is recorded as 78.4%.
For `K54I`, “relative binding score” read 6.59%.
Under “relative binding score”, `E38V` is recorded as 22.8%.
`N61W`: “relative binding score” 78.3%.
`Q31N` — result for “relative binding score”: 12.6%.
`E151T` — result for “relative binding score”: 77.7%.

Sample 3
Target: RING finger protein unkempt homolog, zinc fingers 1-6, GST-SBP tag (UNK, Homo sapiens, UniProt Q9C0B0, residues 30-357)
Method: RNA Bind-n-Seq
Molecule type: RNA
Sample: in vitro
Tested at: not given
Setting: RNA with constant flanks, human and mouse sites, ends assumed
Baseline: input RNA pool
Direction: higher = stronger binding
Construct (chain): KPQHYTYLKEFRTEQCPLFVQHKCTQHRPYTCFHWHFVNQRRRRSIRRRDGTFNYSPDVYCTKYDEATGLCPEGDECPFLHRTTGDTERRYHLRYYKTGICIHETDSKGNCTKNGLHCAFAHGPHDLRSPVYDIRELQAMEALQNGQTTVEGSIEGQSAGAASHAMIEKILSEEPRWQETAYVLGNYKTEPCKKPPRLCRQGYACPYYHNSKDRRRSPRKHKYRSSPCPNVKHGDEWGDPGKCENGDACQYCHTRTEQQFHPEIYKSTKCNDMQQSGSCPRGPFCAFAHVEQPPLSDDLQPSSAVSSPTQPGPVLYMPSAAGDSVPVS
With `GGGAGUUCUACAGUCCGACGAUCUGGACUUUGAGUUUGCUGCAUGGCAGAUGCUCUACCUGUUUACCUCUCCUCAGAGGGUUUAUAGAAACUUUCACUACCGGAAGCAAACAAAGGACCAGUGGGCCAGAGAUGACCCUGCCUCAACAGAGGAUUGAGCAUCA` the bound/input enrichment was 0.121 ratio.
`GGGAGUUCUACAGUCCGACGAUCAUGGCAACAUCAGAAGCACUCAAGAUUUCCAGAGAGGUAGAUCCAGAUGGGCGCAGAACUCUAGCUGUAAUCACUAAACUUGAUCUCAUGGAUGCGGGUACUGAUGCCAUGGAUGUAUUGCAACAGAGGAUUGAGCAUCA` has a bound/input enrichment of 0.182 ratio.
`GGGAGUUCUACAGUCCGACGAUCUGAGCCCCGAGCCCGGCGCGGUCCCCGCAAGAUGGACGGUUUCGCCGGCAGCCUCGAUGAUAGUAUUUCUGCUGCAAGUACCUCUGACGUUCAAGACCGCCUCUCAGCUCUUGAGUCACGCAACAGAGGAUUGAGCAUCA` gave a bound/input enrichment of 0.442 ratio.
With `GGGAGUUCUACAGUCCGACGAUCCGACACGCACAGGGAGGUAUGUGGUAUGGGGUGGACAUCAACAAUGAGAACAUCGCCGACAACUUCCAGGCAUUUGUGUGGGAGCCAGCCAUGGUGCGCAUCAACGCUCUGACAGCAGCUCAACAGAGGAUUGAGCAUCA` the bound/input enrichment was 0.2 ratio.
`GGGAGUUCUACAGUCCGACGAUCUUUCUAAUACAGCAGUAUCUUAAAGAAGACUACAGUUUUACAGCUUAUGCUACCAUUUCGUAUUUGAAAAUAGGACCUAAAGCUAAUCUUCUGAACAAUGAGGCACAUGCUAUUACUAUGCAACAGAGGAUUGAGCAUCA` has a bound/input enrichment of 0.167 ratio.
`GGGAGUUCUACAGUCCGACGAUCCCUGGGCUCAAAGUUGGCCCUGUUCCAGUAUUGGUUAUGAGUCUUCUGUUCAUCGCUUCUGUAUUUAUGUUGCACAUUUGGGGCAAGUACACUCGUUCGUAGAUUCAGUUACAUCCAUCUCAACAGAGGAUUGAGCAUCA` has a bound/input enrichment of 0.311 ratio.
With `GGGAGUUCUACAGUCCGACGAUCGAUGUAAAUCAAAUUGCCCUGUAGACUAUCUUCGUUUCACCUGCCAUUGUAUCACCAGUAUUCUUUGCAAUUGGUUGUAUAUGUACUUUUGGGAGAAACAUAUAAGGUAUUUUCCCUUGGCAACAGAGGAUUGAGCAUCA` the bound/input enrichment was 0.0901 ratio.
`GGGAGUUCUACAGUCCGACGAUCUUAAUCAGGGAAGAUUUAGGAUUCAGAUUUAUAUCGGAACAGGUCAGUCACCACCCCCCCAUCAGUGCGUUCCACUCGGAAGGUCUCAACCAUGACUUCCUGUUCCAUGGCUCCAUCUACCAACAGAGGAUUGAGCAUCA` gave a bound/input enrichment of 0.313 ratio.

Sample 4
Target: Interferon regulatory factor 7, full length, phosphomimetic (IRF7, Homo sapiens, UniProt Q92985, residues 1-503, S471D/S472D/S475D/S476D/S477D/S483D/S484D/S487D)
Method: protein-binding microarray
Molecule type: double-stranded DNA, one strand shown
Sample: in vitro
Tested at: 2200 nM top
Setting: 60-bp whole probe
With: salmon DNA 0.4 mg/ml
Baseline: random background probes
Direction: higher = stronger binding
Constant ends, left off below: GCCTAGCAC … GTCTTGATTCGCTTGACGCTGCTG
Residues (chain): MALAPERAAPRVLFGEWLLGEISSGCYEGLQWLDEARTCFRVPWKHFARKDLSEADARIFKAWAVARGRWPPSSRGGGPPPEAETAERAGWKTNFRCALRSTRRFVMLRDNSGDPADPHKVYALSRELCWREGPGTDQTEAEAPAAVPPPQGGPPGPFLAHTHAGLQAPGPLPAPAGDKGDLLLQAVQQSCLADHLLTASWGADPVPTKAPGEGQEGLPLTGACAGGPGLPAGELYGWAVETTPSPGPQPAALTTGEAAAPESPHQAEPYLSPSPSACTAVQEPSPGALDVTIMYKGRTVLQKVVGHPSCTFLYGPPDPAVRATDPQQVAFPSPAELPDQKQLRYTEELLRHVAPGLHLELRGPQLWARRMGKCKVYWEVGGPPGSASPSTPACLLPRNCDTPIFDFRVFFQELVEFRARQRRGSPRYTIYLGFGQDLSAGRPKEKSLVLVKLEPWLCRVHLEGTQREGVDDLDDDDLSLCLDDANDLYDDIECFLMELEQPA
For `GACAGTCTCCTTATCCTGACGTGCTAG`, “fitted relative affinity” read 1.47 z-score.
`GACGATTTCGGGTATCGAGTCGTGCTA` — result for “fitted relative affinity”: 3.3 z-score.
`TTAGGTATCCTACTGCTTTGGTGCTAG` — result for “fitted relative affinity”: 0.66 z-score.
For `TTACGACTGGACTTTCGGTTAGTGCTA`, “fitted relative affinity” read 5.42 z-score.
`TTTCTCTGCTCTTTTCAACAAGTGCTA` — result for “fitted relative affinity”: 2.39 z-score.
`TCACTCTTCTTGCATCTGACTGTGCTA` — result for “fitted relative affinity”: 1.74 z-score.
Under “fitted relative affinity”, `TCATTCATGAAATTTTAGACTGTGCTA` is recorded as -0.182 z-score.
Under “fitted relative affinity”, `TTAGATATCAGTCTCGATCAGTGCTAG` is recorded as 0.0979 z-score.
Under “fitted relative affinity”, `GACGAGCTGAGACTGGAGACGTGCTAG` is recorded as -0.65 z-score.
For `TCACCTTCAGCTCTAGGACTGTGCTAG`, “fitted relative affinity” read 1.03 z-score.
Under “fitted relative affinity”, `GACGGTTTCGGGACTGGGGCCGTGCTA` is recorded as 3.32 z-score.
For `GACGGCCTGGGGTTTCGGGACGTGCTA`, “fitted relative affinity” read 0.249 z-score.
For `TTGGTTCTGATCCTTCCCCTCGTGCTA`, “fitted relative affinity” read 1.69 z-score.
For `ATAGGACTGGGTCTCGGTTAGTGCTAG`, “fitted relative affinity” read 0.0908 z-score.
`GACGGTATCCTTTTCTTGACGTGCTAG`: “fitted relative affinity” 1.33 z-score.
`GACGATCTCAGTCGCGAGACGTGCTAG`: “fitted relative affinity” -0.115 z-score.
`GCCGGTTTCCTACTGCTGACGTGCTAG` — result for “fitted relative affinity”: 2.56 z-score.
For `GACGGTATCGGTCCCGGGACGTGCTAG`, “fitted relative affinity” read -0.165 z-score.
Under “fitted relative affinity”, `TTAGGACTGCTTTTCCTTAAGTGCTAG` is recorded as 0.688 z-score.
